Measurements of several laboratories.
Each numbered part is a random draw from the data of one study; scales do not carry over between parts. Numbers after ± are the reported error.

Set 1
Target: U2AF2 148-342 (Homo sapiens, UniProt P26368)
Chain of UniProt P26368 (whole entry, looked up): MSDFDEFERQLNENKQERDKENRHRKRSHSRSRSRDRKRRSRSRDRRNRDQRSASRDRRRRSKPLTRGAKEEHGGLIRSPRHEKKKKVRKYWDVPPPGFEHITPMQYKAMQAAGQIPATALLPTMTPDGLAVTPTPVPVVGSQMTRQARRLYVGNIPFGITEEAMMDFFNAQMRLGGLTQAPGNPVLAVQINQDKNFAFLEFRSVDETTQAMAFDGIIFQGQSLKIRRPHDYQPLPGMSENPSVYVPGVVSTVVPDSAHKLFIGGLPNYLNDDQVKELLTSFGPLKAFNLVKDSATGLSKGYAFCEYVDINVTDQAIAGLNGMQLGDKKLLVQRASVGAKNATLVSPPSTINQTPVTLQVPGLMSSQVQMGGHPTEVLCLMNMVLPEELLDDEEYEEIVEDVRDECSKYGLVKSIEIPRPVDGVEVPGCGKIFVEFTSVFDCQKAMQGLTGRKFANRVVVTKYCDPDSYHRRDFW
Technique: sequencing of bound RNA
Form: RNA
Setting: motif only
Endpoint: Kd
Library: ssRNA
ACACCCUUC: 2.85 µM
CUAGAAUCC: 3.7 µM
GUUGCGAUU: 3.17 µM
GAAGUGUCA: 3.14 µM
AUUUUUUAU: 4.75 µM
AUUAGCUUC: 5.15 µM
GUUUCGUAC: 4.84 µM
GAAUACUUG: 12.6 µM

Set 2
Target: PP6C (human)
Read-out: co-immunoprecipitation
Technique: IP-MS
Cell line: CYB5R4 knockout cells
Concentration: concentration not given
Relative to: CYB5R4 knockout over parental
Endpoint: log2 fold change
B1: Twinfilin-2 (human); sequence looked up; chain AHQTGIHATEELKEFFAKARAGSVRLIKVVIEDEQLVLGASQEPVGRWDQDYDRAVLPLLDAQQPCYLLYRLDSQNAQGFEWLFLAWSPDNSPVRLKMLYAATRATVKKEFGGGHIKDELFGTVKDDLSFAGYQKHLSSCAAPAPLTSAERELQQIRINEVKTEISVESKHQTLQGLAFPLQPEAQRALQQLKQKMVNYIQMKLDLERETIELVHTEPTDVAQLPSRVPRDAARYHFFLYKHTHEGDPLESVVFIYSMPGYKCSIKERMLYSSCKSRLLDSVEQDFHLEIAKKIEIGDGAELTAEFLYDEVHPKQHAFKQAFAKPKGPGGKRGHKRLIRGPGENGDDS
B2: human hnRNP U; sequence looked up; chain SSSPVNVKKLKVSELKEELKKRRLSDKGLKAELMERLQAALDDEEAGGRPAMEPGNGSLDLGGDSAGRSGAGLEQEAAAGGDEEEEEEEEEEEGISALDGDQMELGEENGAAGAADSGPMEEEEAASEDENGDDQGFQEGEDELGDEEEGAGDENGHGEQQPQPPATQQQQPQQQRGAAKEAAGKSSGPTSLFAVTVAPPGARQGQQQAGGKKKAEGGGGGGRPGAPAAGDGKTEQKGGDKKRGVKRPREDHGRGYFEYIEENKYSRAKSPQPPVEEEDEHFDDTVVCLDTYNCDLHFKISRDRLSASSLTMESFAFLWAGGRASYGVSKGKVCFEMKVTEKIPVRHLYTKDIDIHEVRIGWSLTTSGMLLGEEEFSYGYSLKGIKTCNCETEDYGEKFDENDVITCFANFESDEVELSYAKNGQDLGVAFKISKEVLAGRPLFPHVLCHNCAVEFNFGQKEKPYFPIPEEYTFIQNVPLEDRVRGPKGPEEKKDCEVVMMIGLPGAGKTTWVTKHAAENPGKYNILGTNTIMDKMMVAGFKKQMADTGKLNTLLQRAPQCLGKFIEIAARKKRNFILDQTNVSAAAQRRKMCLFAGFQRKAVVVCPKDEDYKQRTQKKAEVEGKDLPEHAVLKMKGNFTLPEVAECFDEITYVELQKEEAQKLLEQYKEESKKALPPEKKQNTGSKKSNKNKSGKNQFNRGGGHRGRGGFNMRGGNFRGGAPGNRGGYNRRGNMPQRGGGGGGSGGIGYPYPRAPVFPGRGSYSNRGNYNRGGMPNRGNYNQNFRGRGNNRGYKNQSQGYNQWQQGQFWGQKPWSQHYHQGYY
B3: general transcription factor II-I (human); sequence looked up; chain AQVAMSTLPVEDEESSESRMVVTFLMSALESMCKELAKSKAEVACIAVYETDVFVVGTERGRAFVNTRKDFQKDFVKYCVEEEEKAAEMHKMKSTTQANRMSVDAVEIETLRKTVEDYFCFCYGKALGKSTVVPVPYEKMLRDQSAVVVQGLPEGVAFKHPENYDLATLKWILENKAGISFIIKRPFLEPKKHVGGRVMVTDADRSILSPGGSCGPIKVKTEPTEDSGISLEMAAVTVKEESEDPDYYQYNIQAGPSETDDVDEKQPLSKPLQGSHHSSEGNEGTEMEVPAEDSTQHVPSETSEDPEVEVTIEDDDYSPPSKRPKANELPQPPVPEPANAGKRKVREFNFEKWNARITDLRKQVEELFERKYAQAIKAKGPVTIPYPLFQSHVEDLYVEGLPEGIPFRRPSTYGIPRLERILLAKERIRFVIKKHELLNSTREDLQLDKPASGVKEEWYARITKLRKMVDQLFCKKFAEALGSTEAKAVPYQKFEAHPNDLYVEGLPENIPFRSPSWYGIPRLEKIIQVGNRIKFVIKRPELLTHSTTEVTQPRTNTPVKEDWNVRITKLRKQVEEIFNLKFAQALGLTEAVKVPYPVFESNPEFLYVEGLPEGIPFRSPTWFGIPRLERIVRGSNKIKFVVKKPELVISYLPPGMASKINTKALQSPKRPRSPGSNSKVPEIEVTVEGPNNNNPQTSAVRTPTQTNGSNVPFKPRGREFSFEAWNAKITDLKQKVENLFNEKCGEALGLKQAVKVPFALFESFPEDFYVEGLPEGVPFRRPSTFGIPRLEKILRNKAKIKFIIKKPEMFETAIKESTSSKSPPRKINSSPNVNTTASGVEDLNIIQVTIPDDDNERLSKVEKARQLREQVNDLFSRKFGEAIGMGFPVKVPYRKITINPGCVVVDGMPPGVSFKAPSYLEISSMRRILDSAEFIKFTVIRPFPGLVINNQLVDQSESEGPVIQESAEPSQLEVPATEEIKETDGSSQIKQEPDPTW
B4: Reticulon-4 (human); sequence looked up; chain MEDLDQSPLVSSSDSPPRPQPAFKYQFVREPEDEEEEEEEEEEDEDEDLEELEVLERKPAAGLSAAPVPTAPAAGAPLMDFGNDFVPPAPRGPLPAAPPVAPERQPSWDPSPVSSTVPAPSPLSAAAVSPSKLPEDDEPPARPPPPPPASVSPQAEPVWTPPAPAPAAPPSTPAAPKRRGSSGSVDETLFALPAASEPVIRSSAENMDLKEQPGNTISAGQEDFPSVLLETAASLPSLSPLSAASFKEHEYLGNLSTVLPTEGTLQENVSEASKEVSEKAKTLLIDRDLTEFSELEYSEMGSSFSVSPKAESAVIVANPREEIIVKNKDEEEKLVSNNILHNQQELPTALTKLVKEDEVVSSEKAKDSFNEKRVAVEAPMREEYADFKPFERVWEVKDSKEDSDMLAAGGKIESNLESKVDKKCFADSLEQTNHEKDSESSNDDTSFPSTPEGIKDRSGAYITCAPFNPAATESIATNIFPLLGDPTSENKTDEKKIEEKKAQIVTEKNTSTKTSNPFLVAAQDSETDYVTTDNLTKVTEEVVANMPEGLTPDLVQEACESELNEVTGTKIAYETKMDLVQTSEVMQESLYPAAQLCPSFEESEATPSPVLPDIVMEAPLNSAVPSAGASVIQPSSSPLEASSVNYESIKHEPENPPPYEEAMSVSLKKVSGIKEEIKEPENINAALQETEAPYISIACDLIKETKLSAEPAPDFSDYSEMAKVEQPVPDHSELVEDSSPDSEPVDLFSDDSIPDVPQKQDETVMLVKESLTETSFESMIEYENKEKLSALPPEGGKPYLESFKLSLDNTKDTLLPDEVSTLSKKEKIPLQMEELSTAVYSNDDLFISKEAQIRETETFSDSSPIEIIDEFPTLISSKTDSFSKLAREYTDLEVSHKSEIANAPDGAGSLPCTELPHDLSLKNIQPKVEEKISFSDDFSKNGSATSKVLLLPPDVSALATQAEIESIVKPKVLVKEAEKKLPSDTEKEDRSPSAIFSAELSKTSVVDLLYWRDIKKTGVVFGASLFLLLSLTVFSIVSVTAYIALALLSVTISFRIYKGVIQAIQKSDEGHPFRAYLESEVAISEELVQKYSNSALGHVNCTIKELRRLFLVDDLVDSLKFAVLMWVFTYVGALFNGLTLLILALISLFSVPVIYERHQAQIDHYLGLANKNVKDAMAKIQAKIPGLKRKAE
B5: human AP2A1; sequence looked up; chain MPAVSKGDGMRGLAVFISDIRNCKSKEAEIKRINKELANIRSKFKGDKALDGYSKKKYVCKLLFIFLLGHDIDFGHMEAVNLLSSNKYTEKQIGYLFISVLVNSNSELIRLINNAIKNDLASRNPTFMCLALHCIANVGSREMGEAFAADIPRILVAGDSMDSVKQSAALCLLRLYKASPDLVPMGEWTARVVHLLNDQHMGVVTAAVSLITCLCKKNPDDFKTCVSLAVSRLSRIVSSASTDLQDYTYYFVPAPWLSVKLLRLLQCYPPPEDAAVKGRLVECLETVLNKAQEPPKSKKVQHSNAKNAILFETISLIIHYDSEPNLLVRACNQLGQFLQHRETNLRYLALESMCTLASSEFSHEAVKTHIDTVINALKTERDVSVRQRAADLLYAMCDRSNAKQIVSEMLRYLETADYAIREEIVLKVAILAEKYAVDYSWYVDTILNLIRIAGDYVSEEVWYRVLQIVTNRDDVQGYAAKTVFEALQAPACHENMVKVGGYILGEFGNLIAGDPRSSPPVQFSLLHSKFHLCSVATRALLLSTYIKFINLFPETKATIQGVLRAGSQLRNADVELQQRAVEYLTLSSVASTDVLATVLEEMPPFPERESSILAKLKRKKGPGAGSALDDGRRDPSSNDINGGMEPTPSTVSTPSPSADLLGLRAAPPPAAPPASAGAGNLLVDVFDGPAAQPSLGPTPEEAFLSELEPPAPESPMALLADPAPAADPGPEDIGPPIPEADELLNKFVCKNNGVLFENQLLQIGVKSEFRQNLGRMYLFYGNKTSVQFQNFSPTVVHPGDLQTQLAVQTKRVAAQVDGGAQVQQVLNIECLRDFLTPPLLSVRFRYGGAPQALTLKLPVTINKFFQPTEMAAQDFFQRWKQLSLPQQEAQKIFKANHPMDAEVTKAKLLGFGSALLDNVDPNPENFVGAGIIQTKALQVGCLLRLEPNAQAQMYRLTLRTSKEPVSRHLCELLAQQF
B1 (Twinfilin-2): 1.27
B2 (human hnRNP U): -1.01
B3: 0.24
B4 (Reticulon-4): -0.44
B5 (human AP2A1): -0.42

Single results of other studies
CDK5 with p25: Cyclin-dependent kinase 5, with p25 (CDK5, Homo sapiens, UniProt Q00535)
Chain of UniProt Q00535 (whole entry, looked up): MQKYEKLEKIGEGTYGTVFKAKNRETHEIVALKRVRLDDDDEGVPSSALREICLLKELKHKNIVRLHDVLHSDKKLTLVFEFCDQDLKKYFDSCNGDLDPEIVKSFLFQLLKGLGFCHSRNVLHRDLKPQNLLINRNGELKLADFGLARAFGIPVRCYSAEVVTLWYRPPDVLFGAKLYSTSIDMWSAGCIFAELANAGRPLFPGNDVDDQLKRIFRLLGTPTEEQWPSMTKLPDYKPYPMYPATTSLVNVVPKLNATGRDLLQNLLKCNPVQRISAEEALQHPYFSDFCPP
SUA7 full length assumed: SUA7 full length assumed (Saccharomyces cerevisiae, UniProt P29055)
Chain of UniProt P29055 (whole entry, looked up): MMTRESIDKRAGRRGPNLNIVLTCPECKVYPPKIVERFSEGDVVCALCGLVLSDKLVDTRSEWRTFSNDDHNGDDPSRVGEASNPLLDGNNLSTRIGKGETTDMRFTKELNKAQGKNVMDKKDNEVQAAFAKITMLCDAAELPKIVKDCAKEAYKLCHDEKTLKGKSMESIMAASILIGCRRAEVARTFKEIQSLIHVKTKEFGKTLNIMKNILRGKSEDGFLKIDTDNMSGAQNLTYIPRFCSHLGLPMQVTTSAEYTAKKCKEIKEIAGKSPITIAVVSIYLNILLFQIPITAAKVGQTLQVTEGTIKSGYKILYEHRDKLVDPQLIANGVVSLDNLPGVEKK
T1: TOA1/TOA2 1-286; 1-122 (Saccharomyces cerevisiae); chain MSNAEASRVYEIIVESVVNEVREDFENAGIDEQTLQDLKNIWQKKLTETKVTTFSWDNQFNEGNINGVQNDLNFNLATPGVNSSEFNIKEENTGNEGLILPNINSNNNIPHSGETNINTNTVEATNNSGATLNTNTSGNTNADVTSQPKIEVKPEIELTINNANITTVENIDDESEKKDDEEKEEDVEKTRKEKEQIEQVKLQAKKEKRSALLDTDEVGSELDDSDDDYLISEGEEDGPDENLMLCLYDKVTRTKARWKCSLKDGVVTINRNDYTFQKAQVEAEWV; chain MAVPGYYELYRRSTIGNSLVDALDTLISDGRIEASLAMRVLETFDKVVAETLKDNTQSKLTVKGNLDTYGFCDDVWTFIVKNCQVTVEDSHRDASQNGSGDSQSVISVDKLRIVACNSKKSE
KEAFWERCLSVINLMSSKMLQINA
activity change (CDK5 with p25; phosphotransferase activity, radiometric; peptide; concentration not given, 10% DMSO, with: histone substrate; relative to: p5-WT peptide): 12%

GAAAAACATCTAACATAAATATATAAACGCAAACATCAAGTCAATCGGTCC (dsDNA; 5'-amino-C6 primer)
Kd (SUA7 full length assumed; array; double-stranded DNA, one strand shown; TFIIB alone): 0.0008 ± 0.00045 µM

KEAFWDRCLSVINLMSSKMLQIEA
activity change (CDK5 with p25; phosphotransferase activity, radiometric; peptide; concentration not given, 10% DMSO, with: histone substrate; relative to: p5-WT peptide): 63%

AAAAAACAAAAAAAATCCTATAACCAGTTCTCCCGTCAAGTCAATCGGTCC (dsDNA; 5'-amino-C6 primer)
Kd (T1, TOA1/TOA2 1-286; 1-122 (Saccharomyces cerevisiae); array; double-stranded DNA, one strand shown; TFIIA alone): 0.0959 ± 0.0314 µM

KEAFWDRCLSVINLMTSKMLQINA
activity change (CDK5 with p25; phosphotransferase activity, radiometric; peptide; concentration not given, 10% DMSO, with: histone substrate; relative to: p5-WT peptide): 4%

TCCTGAAGGGGAGCCTATAAAAGGTCCTATCGTCGTCAAGTCAATCGGTCC (dsDNA; 5'-amino-C6 primer)
Kd (SUA7 full length assumed; array; double-stranded DNA, one strand shown; TFIIB alone): 0.00322 ± 0.00055 µM

Excerpt of the above (set 1):
GAAUACUUG: 12.6 µM
